Published values collected from several papers.
Each numbered part is a random draw from the data of one study; scales do not carry over between parts. Positions count from the first letter of the parent shown.

Set 1 — method: RNA Bind-n-Seq; form: RNA; sample: in vitro; concentration: 20 nM; setting: 6-mer, flanks averaged, single round; added: 150 mM LiCl; reference: input library; reading: higher = stronger binding
Target: TAR DNA-binding protein 43, full length, His tag (TARDBP, Homo sapiens, UniProt Q13148, residues 1-414)
Oligonucleotide | 6-mer enrichment (R)
UAGUUA | 0.98
CAGCCC | 1.01
UCAAUU | 0.942
AAUGGC | 0.944
GAACGU | 0.902
CCUGCG | 0.945
GGCUCC | 0.983
UGUAAA | 0.959
CUUAUA | 0.969
CUUAUU | 1.08
UAGUUU | 1.12
AUAGCC | 0.895
CAAGGG | 1
GACGGG | 1.11
UCGACA | 0.823
GGGAGG | 1.4
ACAGUG | 0.99
AGUUUU | 1.14
UUGAGC | 0.982

Set 2 — method: protein-binding microarray; form: double-stranded DNA, one strand shown; sample: in vitro; concentration: 940 nM top; setting: 60-bp whole probe; added: salmon DNA 0.4 mg/ml; reference: random background probes; reading: higher = stronger binding; constant ends, left off below: GCCTAGCAC … GTCTTGATTCGCTTGACGCTGCTG
Target: Interferon regulatory factor 5, full length, phosphomimetic (IRF5, Homo sapiens, UniProt Q13568-2, residues 1-514, S451D/S453D/S456D/S462D)
Oligonucleotide | fitted relative affinity [z-score]
CAAACACTAGTTTTCATTTTGTGCTAG | 0.409
TTAAATATCAGTCTCGATTAGTGCTAG | 3.39
GACTGTTTCCTTCTCCTGACGTGCTAG | 1.07
GACGTTTTCGGGTTTCGGGACGTGCTA | 3.41
TTCGATATCGGGTATCGATTAGTGCTA | 3.56
GACGATTTCAGTTTCCAGACGTGCTAG | 0.647
GACGGTTTCGGGTATCGGGAGGTGCTA | 9.44
GTCGAACTGGGGTATCGAGACGTGCTA | 1.95
ATGGAAATGCACCCCACGCTGTGCTAG | -0.276
TCAATTGTGGGTCTTGCACTGTGCTAG | -0.52
CAATTCCTGAAATCTCTTTCCGTGCTA | 0.794
TTAGGTTTGCTTTTCCTTTAGTGCTAG | 0.132
TCAACCATCTCATATAAAACTGTGCTA | 0.588
CCACCACCAACACCAGTCATGTGCTAG | 0.662
GCCGGTCTCGGTATCGGGACGTGCTAG | 5.48
GACGGACTGCTACTGCCGACGTGCTAG | -0.867
TTAGGTATCCTTCTCCTTTTGTGCTAG | 0.915
CTTTCTCCCAAGTCTTGTTTTGTGCTA | 1.59
CTAGGTCTCCTTCTCCTTTAGTGCTAG | 0.533
TTAGATATCAGACTGGATAAGTGCTAG | -0.457
GACGATATCGGGACCGGAGACGTGCTA | 0.146
GACGGTTCCTGTTTCGGGACGTGCTAG | 1.97
GCCGATATCGGGTTTCGAGACGTGCTA | 2.58
TTTCTTTTCTTTTCTTTTTTGTGCTAG | 3.81
TCATTTTTACCTGTGGTACTGTGCTAG | 0.313

Set 3 — method: DHFR PCA, deep sequencing; sample: yeast; added: (+)-ABA 2500 µM; reference: wild-type fitted maximum; reading: higher = stronger binding
Target: ABI1, truncated, D143A, DHFR fusion (Arabidopsis thaliana)
Setting: methotrexate growth selection, single substitutions
Starting sequence: PYL1, truncated, DHFR fusion (Arabidopsis thaliana); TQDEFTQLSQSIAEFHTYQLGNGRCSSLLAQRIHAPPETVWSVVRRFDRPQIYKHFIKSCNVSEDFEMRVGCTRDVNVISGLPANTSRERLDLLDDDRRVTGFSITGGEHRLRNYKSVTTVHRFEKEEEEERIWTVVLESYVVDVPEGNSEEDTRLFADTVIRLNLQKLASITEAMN
Variant | relative binding score [%]
G108W | 42.4
E131W | 88.9
P37T | 85.7
D97G | 98.6
E129V | 107
Q19P | 95.5
S63V | 97.4
I79C | 103
H16F | 44.7
G71T | 77.7
T73Q | 102
S63C | 97.2
H110F | 21.6
D96S | 87.3
I57M | 88
H34N | 100

Set 4 — method: RNA Bind-n-Seq; form: RNA; sample: in vitro; concentration: 365 nM; reference: no-protein control; reading: higher = stronger binding
Target: RNA binding protein fox-1 homolog 2, RRM domain, GST-SBP tag (RBFOX2, Homo sapiens, UniProt O43251-10, residues 100-194)
Setting: natural RNA segment, single round, ends assumed
Construct (chain): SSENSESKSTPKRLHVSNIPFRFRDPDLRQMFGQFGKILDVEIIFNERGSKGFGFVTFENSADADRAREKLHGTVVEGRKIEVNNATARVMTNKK
Oligonucleotide | RBNS enrichment (R)
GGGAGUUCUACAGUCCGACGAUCAUUGCAAAUGUAGUGUAUCACUGAGUCAUUUGCAGUGUUUUCUGCCACAGACCUUUGGGCUGCCUUAUAUUGUGUGUGUGUGUGGGUGUGUGUGUGUUUUGACACAAAAAUGGAAUUCUCGGGUGCCAA | 1.07
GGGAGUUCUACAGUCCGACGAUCAGAUUUAAAAGGAGCACAUGAUUUAGUGGGUGGGCCAUGAAACUAGAGAUGGGAUUUGGGGGUGAAUUUGUCAAUAUCUGGAUUUUAAUCCAGACAUCUCUGCUAACAAGUGGAAUUCUCGGGUGCCAA | 1.58
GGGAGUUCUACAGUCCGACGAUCUUGGCCAAUGUAUUUCAGAGAAAGAAGUAAAGCAGGAAAGAAGCCCCCAGUAAACACUAAGAUGGACCUCAAGCCGACUGGUUCCUUGUACUUGAAGUACUUGCCUUUUUUGGAAUUCUCGGGUGCCAA | 0.419
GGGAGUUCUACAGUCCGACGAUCUGAUUCUGGUGAUCCAGUGAUCUAUGGAAGUCGUGUCUUACUCCAGGUGAAGGGGGAAAAAAAAAGCCUAUACUUUGGCAGGUUAUGAACUUUGAAUGUGAUGAAAUGACUGGAAUUCUCGGGUGCCAA | 2.23
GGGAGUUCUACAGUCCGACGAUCCAGUUACUCAGCCCUUUUUAUUUCCUUGUUUGAGAGGUAUGCAACCUUGCCUUUACCCAAACUUUGUGGUUUACCCCUUCACCUCCCAGGGGCCCCGACUCUUAAGGGGGUGGAAUUCUCGGGUGCCAA | 2.9
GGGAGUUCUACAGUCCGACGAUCCCUGCCAUGCUGUGGCCAACUGUUUCACUGGAGCAAGAAAGAGAUCUCAUAGGACGGAGGGGGAAAUGGUUUCCCUCCAAGCUUGGGUCAGUGUGUUAACUGCUUAUCAGUGGAAUUCUCGGGUGCCAA | 0.669
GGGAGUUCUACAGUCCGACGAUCUGCCUAGGUCCUAAAACAGUAAGAAAGAAACGUUUUCAUGCUUCUGGCCAGGAAUCCUGGGUCUGCAACUUUGGAAAACUCCUCUUCACAUAACAAUUUCAUCCAAUUCAUGGAAUUCUCGGGUGCCAA | 0.358
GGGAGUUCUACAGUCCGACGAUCUAGUGACAUGUACACAGUAGAUGCUCAAGCAGUGUCUGCAAGGACACAAGCUGAGCUUUCUCCUUAUGGGGCAAACCUAUGUCUAACCAGAUACAGACCAAUUAGUUUAGUGGAAUUCUCGGGUGCCAA | 0.207
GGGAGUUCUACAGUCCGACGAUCUUUUUUGAAAAGAUGAACCAAAGGAUUUGACUGCUAAUAUUUUAUUCCUUACACUUUUUUUCUGAAUAAGUCUCUCAUAAUGAGUGCAGUGUCAGACUGUGCCUACUCUGUGGAAUUCUCGGGUGCCAA | 0.565
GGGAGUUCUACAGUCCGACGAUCUGGCGGAGUGAAGCUCAGCUCGGUGGUCGCUCAGAGCAGCCAGUGGUCCCCUCUGCUCUGUUCCCUCCUCCUGUGGGAAGGGACUCGGAAGCUUGUCUGCCCCUCACCAGUGGAAUUCUCGGGUGCCAA | 0.264
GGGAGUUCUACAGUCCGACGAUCGGAUUUACAUUACAAAGGCGUCCACGGUGUAUUAGUGACAUUCUUCCAUUGACAUUUAGAGUGAAAUAUUUUAUGCCAAAAAAAAAAUCUCUUUUUUAAAAAAGGGGGUUUGGAAUUCUCGGGUGCCAA | 0.426
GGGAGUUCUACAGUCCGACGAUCGUUCGGAAGACUCAUCUAGCCCUUGGGUGCUGACCAGCAGAGCUGCUAGUGGAUAUUGGAGUUACAUGAGCUACGUGUUAAUAUUCAGUCUCCAGAAUAAACGUCCCAGCUGGAAUUCUCGGGUGCCAA | 0.229

Set 5 — target: CCNB2, cyclin fold, Cln2 fusion (human); method: yeast growth competition, sequencing; sample: yeast; setting: weak parent motif; reference: not given; reading: higher = stronger binding
Starting sequence: SCAPER docking peptide (human); SNARRSLNFGGST
Variant | normalised enrichment score
S6T | 0.183
A3I | 0.562
S6M | 0.378
N2S | 0.0701
G11W | 0.147
S1Q | -0.131
S1P | 0.106
R5Q | 0.153
S12Q | -0.0153
A3Q | -0.361
A3M | 0.778
F9S | 0.192
N8L | 0.139
N8S | 0.367
S12H | -0.0199
S1T | 0.357
R4D | -0.112
R4P | -0.288
F9N | -0.0601
S1W | 0.498
S12V | -0.112
G11T | 0.367

Repeated from above (set 2):
Oligonucleotide | fitted relative affinity [z-score]
TTAAATATCAGTCTCGATTAGTGCTAG | 3.39
GACGTTTTCGGGTTTCGGGACGTGCTA | 3.41
GCCGGTCTCGGTATCGGGACGTGCTAG | 5.48
CTTTCTCCCAAGTCTTGTTTTGTGCTA | 1.59
GACGATTTCAGTTTCCAGACGTGCTAG | 0.647
GACTGTTTCCTTCTCCTGACGTGCTAG | 1.07
